{"data": "Measurements collected from several papers", "note": "Each numbered part is a random draw from the data of one study; scales do not carry over between parts."}
{"data": "Block 1", "target": "RNA binding protein fox-1 homolog 2, RRM domain, GST-SBP tag (RBFOX2, Homo sapiens, UniProt O43251-10, residues 100-194)", "method": "RNA Bind-n-Seq", "molecule type": "RNA", "matrix": "in vitro", "concentration": "365 nM", "notes": "natural RNA segment, single round, ends assumed", "relative to": "no-protein control", "direction": "higher = stronger binding", "Residues (chain)": "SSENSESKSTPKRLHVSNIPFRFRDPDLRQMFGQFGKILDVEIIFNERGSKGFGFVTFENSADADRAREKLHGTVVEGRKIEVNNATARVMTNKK"}
{"Sequence": "GGGAGUUCUACAGUCCGACGAUCAUAAAAACAAAAAUGCUAAAUUAUAUCUGUGAAUUGCAGGUAUUGGGGAACAGUUUUAAGGGAAAUUUUGGGGGGAACAUUUUAGGUUUGUAUUUGGUAGUCUUAAUGUAUGGAAUUCUCGGGUGCCAA", "RBNS enrichment (R)": 2.14}
{"Sequence": "GGGAGUUCUACAGUCCGACGAUCCAAUAUUCCUAAGUAGCAAUGGGGUUGGCUCAAGUCUUUAUUAACAAAGAACAUUCUCUUUCAUCUAUAAAGAAAUUCUUAAAGAUGCAUUGACAGUGUUGAAUUACCAAUGGAAUUCUCGGGUGCCAA", "RBNS enrichment (R)": 0.396}
{"Sequence": "GGGAGUUCUACAGUCCGACGAUCUGUUCUUUCUUCAUCAUAAUUUGAGAUACAUCCUGAGUAUGACUGUCUAACCCUUUCUGUGUGGCAGAAAAAUAUGUUUUCCAGGUAGUUUUUACUACUACAGAGAGUCUUGGAAUUCUCGGGUGCCAA", "RBNS enrichment (R)": 0.39}
{"Sequence": "GGGAGUUCUACAGUCCGACGAUCUCUGUGGAGCUGUAGUUCUGAUGGAAGGAGCUGUGCCCACCCUGUACACUUGGCUUCCCCCUGCAACUGCAGGGCCGCUUCUGGGGCCUGGACCACCAUGGGGAGGAAGAUGGAAUUCUCGGGUGCCAA", "RBNS enrichment (R)": 0.326}
{"data": "Block 2", "target": "Histone acetyltransferase KAT6A, both winged helices, GST fusion (KAT6A, Homo sapiens, UniProt Q92794, residues 1-181)", "method": "protein binding microarray", "molecule type": "double-stranded DNA, one strand shown", "matrix": "in vitro", "concentration": "not given", "notes": "8-mer, flanks averaged, mean of 2 arrays, mostly near background", "relative to": "not given", "direction": "higher = stronger binding", "Residues (chain)": "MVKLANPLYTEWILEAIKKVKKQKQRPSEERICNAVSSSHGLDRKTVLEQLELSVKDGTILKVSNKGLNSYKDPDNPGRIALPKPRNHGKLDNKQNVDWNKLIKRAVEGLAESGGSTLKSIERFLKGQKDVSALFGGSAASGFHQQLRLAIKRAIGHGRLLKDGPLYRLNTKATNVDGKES"}
{"Sequence": "AGTTTCTC", "E-score": -0.13}
{"Sequence": "ATGCTCAA", "E-score": -0.119}
{"Sequence": "ACCACCAA", "E-score": -0.153}
{"Sequence": "AAAGGATC", "E-score": -0.0635}
{"Sequence": "ATAGCGTA", "E-score": 0.165}
{"Sequence": "ACTTCTCG", "E-score": 0.0321}
{"data": "Block 3", "target": "Centromere-binding protein 1, full length, N-terminal tag (CBF1, Saccharomyces cerevisiae, UniProt P17106, residues 1-351)", "method": "protein-binding microarray", "molecule type": "double-stranded DNA, one strand shown", "matrix": "in vitro", "concentration": "0.8 µM", "notes": "whole 60-bp probe, no competitor", "direction": "higher = stronger binding", "constant ends, left off below": "… GTCTTGATTCGCTTGACGCTGCTG", "chain of UniProt P17106 (whole entry, looked up)": "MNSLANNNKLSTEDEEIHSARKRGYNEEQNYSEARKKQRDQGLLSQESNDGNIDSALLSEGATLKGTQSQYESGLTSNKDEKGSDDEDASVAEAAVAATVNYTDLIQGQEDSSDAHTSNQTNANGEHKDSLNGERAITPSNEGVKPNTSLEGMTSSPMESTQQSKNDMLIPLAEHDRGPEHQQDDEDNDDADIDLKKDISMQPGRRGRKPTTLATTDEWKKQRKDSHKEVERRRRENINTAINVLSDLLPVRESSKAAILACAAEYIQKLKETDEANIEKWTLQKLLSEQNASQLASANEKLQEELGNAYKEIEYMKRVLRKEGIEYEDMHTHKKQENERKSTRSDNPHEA"}
{"Sequence": "CTAACTAATCTCCATCACGTACCGTACCGTCTTTTC", "fluorescence intensity": "598 a.u."}
{"Sequence": "GAATGGAAAGTGTGGCATGTGCTTCACACAATATAG", "fluorescence intensity": "710 a.u."}
{"Sequence": "GAAGAGAATACGTATCATCATATGATTTCCCCCTAG", "fluorescence intensity": "534 a.u."}
{"Sequence": "GAATTTTACGTTAATGACGTCATGGTGGTATAGTAG", "fluorescence intensity": "570 a.u."}
{"Sequence": "GAAACTCTCTTTTTCCACATGGTGCGTTCACGCTAG", "fluorescence intensity": "505 a.u."}
{"data": "Mixed results"}
{"Molecule": "PhoQ, residues 284 288 289 292 302 303 ASSHFY", "target": "PhoP, residues 12 14 15 18 19 LHTVL (Escherichia coli, UniProt P23836)", "assay": "Sort-seq, measured: YFP reporter", "system": "E. coli", "setting": "PhoQ-PhoP variant library, with: 10 µM Mg2+", "scale": "relative to: high Mg2+ state, higher = stronger signaling", "measurement": "fold induction", "value": 65.4}
{"note": "For quick reference, copied from above (block 1):"}
{"Sequence": "GGGAGUUCUACAGUCCGACGAUCUCUGUGGAGCUGUAGUUCUGAUGGAAGGAGCUGUGCCCACCCUGUACACUUGGCUUCCCCCUGCAACUGCAGGGCCGCUUCUGGGGCCUGGACCACCAUGGGGAGGAAGAUGGAAUUCUCGGGUGCCAA", "RBNS enrichment (R)": 0.326}
